{"data": "Measurements gathered from unrelated publications", "note": "A part holds a random share of what one study measured. ± marks the error that the study gave."}
{"data": "Study 1", "target": "Replicase polyprotein 1ab, main protease (rep, Severe acute respiratory syndrome coronavirus 2, UniProt P0DTD1)", "read-out": "enzyme activity", "mode": "inhibitor", "concentration": "20 µM", "setting": "hit confirmation, no DTT"}
{"Compound": "O=C(O)C(O)Cc1ccc(O)c(O)c1 (centres unmarked)", "inhibition [%]": 85.6}
{"Compound": "COc1cc(-c2ccc(/N=N/c3ccc4c(S(=O)(=O)O)cc(S(=O)(=O)O)c(N)c4c3O)c(OC)c2)ccc1/N=N/c1ccc2c(S(=O)(=O)O)cc(S(=O)(=O)O)c(N)c2c1O", "inhibition [%]": 94.5}
{"Compound": "CC[N+](C)(CC)CCC[n+]1c(-c2ccccc2)c2cc(N)ccc2c2ccc(N)cc21", "inhibition [%]": 90.9}
{"data": "Study 2", "target": "Replicase polyprotein 1ab, nsp13 helicase (rep, Severe acute respiratory syndrome coronavirus 2, UniProt P0DTD1)", "mode": "inhibitor", "concentration": "20 µM"}
{"Structure (SMILES)": "CN(C)CCOc1ccc(-c2nc(-c3ccncc3)c(-c3ccc4c(c3)CC/C4=N\\O)[nH]2)cc1", "inhibition": "3.04%"}
{"Structure (SMILES)": "CCN(CC)C(=S)S", "inhibition": "72.1%"}
{"Structure (SMILES)": "O=c1[nH]c2ccccc2n1CCN1CCN(c2cccc(C(F)(F)F)c2)CC1", "inhibition": "2.85%"}
{"Structure (SMILES)": "O=C(O)CN1C(=O)c2cccc3cccc(c23)C1=O", "inhibition": "7.47%"}
{"Structure (SMILES)": "N[C@@H](Cn1ccc(=O)c(O)c1)C(=O)O", "inhibition": "9.91%"}
{"Structure (SMILES)": "Nc1ncnc2c1c(-c1ccc(Oc3ccccc3)cc1)nn2C1CCCC1", "inhibition": "-0.68%"}
{"Structure (SMILES)": "Nc1nc(N)c2nc(-c3ccccc3)c(N)nc2n1", "inhibition": "-0.6%"}
{"Structure (SMILES)": "CCCn1c(=O)c2[nH]cnc2n(-c2ccc(Cl)cc2)c1=O", "inhibition": "5.12%"}
{"Structure (SMILES)": "C=C(C)[C@@H]1CC[C@]2(CO)CC[C@]3(C)[C@H](CC[C@@H]4[C@@]5(C)CC[C@H](O)C(C)(C)[C@@H]5CC[C@]43C)[C@@H]12", "inhibition": "-1.56%"}
{"Structure (SMILES)": "CC1(C)S[C@@H]2[C@H](N3C(=O)[C@@H](c4ccccc4)NC3(C)C)C(=O)N2[C@H]1C(=O)O", "inhibition": "13.3%"}
{"Structure (SMILES)": "N[C@@H](C[C@@H](F)C(=O)O)C(=O)O (racemic)", "inhibition": "7.55%"}
{"Structure (SMILES)": "CCN(CC)CCCCN1c2ccccc2Oc2ccc(Cl)cc21", "inhibition": "27.2%"}
{"Structure (SMILES)": "CC(=O)O[C@H]1C[C@H](O[C@H]2[C@@H](O)C[C@H](O[C@H]3[C@@H](O)C[C@H](O[C@H]4CC[C@@]5(C)[C@H](CC[C@@H]6[C@@H]5C[C@@H](O)[C@]5(C)[C@@H](C7=CC(=O)OC7)CC[C@]65O)C4)O[C@@H]3C)O[C@@H]2C)O[C@H](C)[C@H]1O[C@@H]1O[C@H](CO)[C@@H](O)[C@H](O)[C@H]1O", "inhibition": "6.63%"}
{"Structure (SMILES)": "COc1cc2ncnc(Nc3ccc(O)c(Br)c3)c2cc1OC", "inhibition": "1.84%"}
{"Structure (SMILES)": "O=C(O)[C@H]1CN(C/C=C/P(=O)(O)O)CCN1", "inhibition": "0.65%"}
{"Structure (SMILES)": "Oc1cccc(Nc2ncc(F)c(Nc3cccc(O)c3)n2)c1", "inhibition": "-0.01%"}
{"Structure (SMILES)": "c1ccc(CCCN2CCN(CCOC(c3ccccc3)c3ccccc3)CC2)cc1", "inhibition": "6.5%"}
{"Structure (SMILES)": "CN1CCN(c2ccc(OC(F)(F)F)c(Nc3ncc4c(n3)-c3c(c(C(N)=O)nn3CCO)CC4)c2)CC1", "inhibition": "-0.87%"}
{"Structure (SMILES)": "CCCn1c(=O)c2[nH]c(C3CCCC3)nc2n(CCC)c1=O", "inhibition": "5.82%"}
{"Structure (SMILES)": "OCCn1cc(-c2ccc3c(c2)CC/C3=N\\O)c(-c2ccncc2)n1", "inhibition": "4.17%"}
{"Structure (SMILES)": "O=C(NCCO[N+](=O)[O-])c1cccnc1", "inhibition": "0.2%"}
{"Structure (SMILES)": "CNC(=O)Oc1ccccc1OC(C)C", "inhibition": "-2.35%"}
{"Structure (SMILES)": "O=C(NCNC(=O)NC1C(=O)NC(=O)N1CO)NC1C(=O)NC(=O)N1CO (centres unmarked)", "inhibition": "7.24%"}
{"Structure (SMILES)": "C[C@@]1(O)[C@H](O)[C@@H](CO)O[C@H]1n1cnc2c(=O)[nH]c(N)nc21", "inhibition": "5.42%"}
{"Structure (SMILES)": "CCCCCOC(=O)Nc1nc(=O)n([C@@H]2O[C@H](C)[C@@H](O)[C@H]2O)cc1F", "inhibition": "-1.03%"}
{"data": "Study 3", "cell line": "HEK-293T", "read-out": "pseudovirus infection", "organism": "VSV pseudotyped with SARS-CoV-2 spike", "concentration": "10 µM", "time": "16 h", "relative to": "vehicle-treated"}
{"SMILES": "C[C@@H](c1nc(-c2ccc(C#N)cc2)cs1)[C@](O)(Cn1cncn1)c1cc(F)ccc1F", "GFP-positive cells [%]": 104}
{"SMILES": "C[C@H](Cc1cc2c(c(C(N)=O)c1)N(CCCO)CC2)NCCOc1ccccc1OCC(F)(F)F", "GFP-positive cells [%]": 103}
{"SMILES": "CN1CCC(=C2c3ccccc3CCn3c(C=O)cnc32)CC1", "GFP-positive cells [%]": 83.2}
{"data": "Single results of other studies", "rep main protease": "Replicase polyprotein 1ab, main protease (rep, Severe acute respiratory syndrome coronavirus 2, UniProt P0DTD1)", "Spike glycoprotein with ACE2": "Spike glycoprotein, with ACE2 (Severe acute respiratory syndrome coronavirus 2, UniProt P0DTC2)"}
{"SMILES": "COc1cc2c(cc1NC(=O)c1ccc(C(C)(C)C)cc1)CCCCN2", "tested on": "Chikungunya virus", "assay": "viral replication", "system": "NHDF", "quantity": "EC90", "value": "3300 nM"}
{"SMILES": "Cc1conc1C(=O)N1Cc2ccccc2C[C@H]1CNC(=O)c1cccc2[nH]ncc12", "tested on": "rep main protease", "assay": "enzyme activity, inhibitor", "setting": "5 µM, run 1", "quantity": "inhibition", "value": "9.9%"}
{"SMILES": "CN1CCCC(CN2c3ccccc3Sc3ccccc32)C1 (centres unmarked)", "tested on": "SARS-CoV-2", "assay": "viral replication, GFP plate reader screen", "setting": "cell-based", "quantity": "EC50", "value": "> 20000 nM"}
{"SMILES": "NC(=O)c1cc(-c2cc(NCc3ccccn3)nc3[nH]ccc23)cs1", "tested on": "Lassa mammarenavirus", "assay": "viral replication", "system": "Huh-7", "setting": "10 µM, 72 h", "quantity": "remaining activity", "value": "53%"}
{"SMILES": "Cc1cccc(C)c1OCC(=O)N[C@@H](Cc1ccccc1)[C@@H](O)C[C@H](Cc1ccccc1)NC(=O)[C@H](C(C)C)N1CCCNC1=O", "tested on": "SARS-CoV-2", "assay": "viral replication, high-content imaging screen", "setting": "cell-based", "quantity": "EC50", "value": "15700 nM"}
{"SMILES": "N#C[C@@]1(n2ccc(N)nc2=O)O[C@H](CO)[C@@H](O)[C@H]1O", "tested on": "SARS-CoV-2", "assay": "viral replication, qRT-PCR of viral RNA", "system": "Calu-3, Washington", "quantity": "EC50", "value": "700 ± 300 nM"}
{"SMILES": "Nc1ccc(N=Nc2ccc(-c3ccc(N=Nc4c(S(=O)(=O)O)cc5cc(S(=O)(=O)O)c(N=Nc6ccccc6)c(O)c5c4N)cc3)cc2)c(N)c1", "tested on": "Spike glycoprotein with ACE2", "assay": "binding to human ACE2, inhibitor", "system": "SARS-CoV-2", "quantity": "IC50", "value": "38 nM"}
{"SMILES": "Cc1cn([C@H]2C[C@H](N=[N+]=[N-])[C@@H](CO)O2)c(=O)[nH]c1=O", "tested on": "HIV-1", "assay": "viral replication", "system": "human PBMC, subtype D 92UG024, CXCR4-tropic clinical isolate", "quantity": "EC50", "value": "6.48 ± 6.39 nM"}
{"SMILES": "CC(C)(C)NCC(O)COc1cccc2[nH]c(C#N)cc12 (centres unmarked)", "tested on": "mouse MPNST tumor cells", "assay": "high-content nuclear imaging, item: cell number", "setting": "10 µM, 12 h, mean of 2 replicates", "scale": "relative to: plate mean, higher = more cells", "quantity": "nuclei count", "value": "0.352 z-score"}
{"SMILES": "Cn1cnc(Cn2c(=O)[nH]/c(=N\\c3cc4cn(C)nc4cc3Cl)n(Cc3cc(F)c(F)cc3F)c2=O)n1", "system": "human, moderate renal impairment", "setting": "oral, 375 mg", "quantity": "anaemia TEAE, Moderate severity", "value": "0%"}
{"SMILES": "CCc1c(C(=O)C(N)=O)c2c(OCC(=O)O)cccc2n1Cc1ccccc1", "tested on": "C2C12", "setting": "10 µM, together with: KL venom", "scale": "relative to: venom alone", "quantity": "viability difference", "value": "22.9%"}
{"SMILES": "Cc1cncc(C(=O)N2CCC(=C3c4ccccc4CCc4ccccc43)CC2)c1", "tested on": "SARS-CoV-2", "assay": "viral replication", "system": "USA-WA1/2020", "setting": "24 h", "quantity": "EC50", "value": "200 nM"}
{"SMILES": "CCn1nc(C)c(C(=O)NCc2nc(-c3cccc(C)c3)no2)c1C", "tested on": "Lassa mammarenavirus", "assay": "viral replication", "system": "Huh-7", "setting": "10 µM, 72 h", "quantity": "remaining activity", "value": "54%"}
{"SMILES": "CN(C)c1ccc(N(Cc2cc(Cl)cs2)C(=O)Cc2cncc3ccccc23)cc1", "tested on": "SARS-CoV-2", "assay": "nucleocapsid staining", "system": "Caco-2, Omicron BA.5", "quantity": "EC50", "value": "100 ± 90 nM"}
{"SMILES": "CN(C)C1CCN(C(=O)c2cc3ccccc3n2C)CC1", "tested on": "Marburg virus", "assay": "pseudovirus entry", "system": "A549", "quantity": "EC50", "value": "> 100000 nM"}
{"SMILES": "Cc1cc(Nc2ncc(Cl)c(Nc3ccccc3S(=O)(=O)C(C)C)n2)c(OC(C)C)cc1C1CCNCC1", "tested on": "rep main protease", "assay": "reporter gene (Gaussia luciferase), inhibitor", "setting": "20 µM", "quantity": "inhibition", "value": "-6.47%"}
{"SMILES": "CNC(=O)[C@@H](NC(=O)[C@H](CC(C)C)[C@H](O)C(=O)NO)C(C)(C)C", "tested on": "C2C12", "setting": "1 µM, together with: AP venom", "scale": "relative to: venom alone", "quantity": "viability difference", "value": "45.4%"}
{"SMILES": "CCOc1ccc(N=Nc2ccc(-c3ccc(N=Nc4c(O)ccc5cc(S(=O)(=O)O)cc(S(=O)(=O)O)c45)c(C)c3)cc2C)cc1", "tested on": "Spike glycoprotein with ACE2", "assay": "binding to human ACE2, inhibitor", "system": "SARS-CoV-2", "quantity": "IC50", "value": "2.25 nM"}
{"SMILES": "CC(C)c1nc(CN(C)C(=O)N[C@H](C(=O)N[C@@H](Cc2ccccc2)C[C@H](O)[C@H](Cc2ccccc2)NC(=O)OCc2cncs2)C(C)C)cs1", "tested on": "rep main protease", "assay": "reporter gene (Gaussia luciferase), inhibitor", "setting": "20 µM", "quantity": "inhibition", "value": "-2.29%"}
{"note": "Repeated from above (single results of other studies):"}
{"SMILES": "CCc1c(C(=O)C(N)=O)c2c(OCC(=O)O)cccc2n1Cc1ccccc1", "tested on": "C2C12", "setting": "10 µM, together with: KL venom", "scale": "relative to: venom alone", "quantity": "viability difference", "value": "22.9%"}
{"SMILES": "COc1cc2c(cc1NC(=O)c1ccc(C(C)(C)C)cc1)CCCCN2", "tested on": "Chikungunya virus", "assay": "viral replication", "system": "NHDF", "quantity": "EC90", "value": "3300 nM"}
{"SMILES": "NC(=O)c1cc(-c2cc(NCc3ccccn3)nc3[nH]ccc23)cs1", "tested on": "Lassa mammarenavirus", "assay": "viral replication", "system": "Huh-7", "setting": "10 µM, 72 h", "quantity": "remaining activity", "value": "53%"}
{"SMILES": "Cc1conc1C(=O)N1Cc2ccccc2C[C@H]1CNC(=O)c1cccc2[nH]ncc12", "tested on": "rep main protease", "assay": "enzyme activity, inhibitor", "setting": "5 µM, run 1", "quantity": "inhibition", "value": "9.9%"}
{"SMILES": "N#C[C@@]1(n2ccc(N)nc2=O)O[C@H](CO)[C@@H](O)[C@H]1O", "tested on": "SARS-CoV-2", "assay": "viral replication, qRT-PCR of viral RNA", "system": "Calu-3, Washington", "quantity": "EC50", "value": "700 ± 300 nM"}
{"SMILES": "Cc1cncc(C(=O)N2CCC(=C3c4ccccc4CCc4ccccc43)CC2)c1", "tested on": "SARS-CoV-2", "assay": "viral replication", "system": "USA-WA1/2020", "setting": "24 h", "quantity": "EC50", "value": "200 nM"}
{"SMILES": "Cn1cnc(Cn2c(=O)[nH]/c(=N\\c3cc4cn(C)nc4cc3Cl)n(Cc3cc(F)c(F)cc3F)c2=O)n1", "system": "human, moderate renal impairment", "setting": "oral, 375 mg", "quantity": "anaemia TEAE, Moderate severity", "value": "0%"}
{"SMILES": "Cc1cc(Nc2ncc(Cl)c(Nc3ccccc3S(=O)(=O)C(C)C)n2)c(OC(C)C)cc1C1CCNCC1", "tested on": "rep main protease", "assay": "reporter gene (Gaussia luciferase), inhibitor", "setting": "20 µM", "quantity": "inhibition", "value": "-6.47%"}
